Measured values from different studies.
Parts stem from different laboratories: compare values within a part only.

Study 1 — technique: RNA Bind-n-Seq; molecule type: RNA; medium: in vitro; concentration: not given; relative to: input RNA pool; reading: higher = stronger binding; measurement: bound/input enrichment
Target: RING finger protein unkempt homolog, zinc fingers 1-6, GST-SBP tag (UNK, Homo sapiens, UniProt Q9C0B0, residues 30-357)
Notes: RNA with constant flanks, human-mouse chimeric sites, ends assumed
Residues (chain): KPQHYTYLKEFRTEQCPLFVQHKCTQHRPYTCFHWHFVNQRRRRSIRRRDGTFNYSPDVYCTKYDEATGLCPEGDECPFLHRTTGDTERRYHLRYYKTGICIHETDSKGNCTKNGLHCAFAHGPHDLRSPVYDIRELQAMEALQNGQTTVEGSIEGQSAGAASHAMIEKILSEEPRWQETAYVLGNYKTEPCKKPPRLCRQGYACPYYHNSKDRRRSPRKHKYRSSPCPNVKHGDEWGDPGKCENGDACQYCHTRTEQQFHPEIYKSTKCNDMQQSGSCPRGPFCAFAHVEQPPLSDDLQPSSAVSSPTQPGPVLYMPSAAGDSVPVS
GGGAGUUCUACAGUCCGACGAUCGCGGCAGAAUCAUGGAGGACAUAAUGCAGCUCCCCAAAGCGCGCGUCAACGCCAGCAUGCUAGCUCAGUAUAUCGACCGGCCCGUGUGCUUCGUAGGGAAGCUGGAAAAGAUUCAUCCCACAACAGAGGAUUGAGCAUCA: 0.119 ratio
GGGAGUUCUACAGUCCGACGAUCCGCUGGCCCAAGCUGAUGGACUCUGAUCUUGAUCUCUUCUCAGGCACGUUUGCCUUCUCUUAGUCCCUGUUUUCGGGAUGUUAUGAAUCUCAGUACUGUGGUUUGAAAGCACCAGCUUUGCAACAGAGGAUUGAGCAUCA: 0.196 ratio
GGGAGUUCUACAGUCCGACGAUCUCGGAUGCUGUGCUGGGUCACUUUUCAUAUCCAGAUCCUUCCCAGUGGACAGAUGAAGAACUGGGAAUCCCUCCUGAUGACGAGGACUGACACUGUAAACUCUCUGGCACUCUGUACGCACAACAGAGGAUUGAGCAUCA: 0.323 ratio
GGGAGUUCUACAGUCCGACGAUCAAAGAGUGGAUAGAGUGUGCACACGGGAUCGGUGGGACUCGGGCAGAAAAGGAGUGCAAGAUAGAGUUCGAUGACUUCGAAGAGUGCUUGCUUCGGUACAAAACGAUGAGACGUGCACAUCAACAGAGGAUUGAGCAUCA: 0.241 ratio
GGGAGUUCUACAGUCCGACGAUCAACAGAUUGUCUUUAAGCAUUCCAAGCGAGAAUGCUGGGGUGAUCAUUGUUGCCCAUAUAUAGUAAUUAAUAGAUGGAAUGCUGUUCCAUGUUACAUCUUUCCUUCACUCCAGAAUUGUUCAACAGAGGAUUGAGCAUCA: 2.94 ratio
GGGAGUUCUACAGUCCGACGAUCCUGAAAAACACAGAUAUCAAAGUUGUUGACUUUGGAAGUGCAACGUAUGAUGAUGAACAUCACAGUACUUUGGUGUCCACAAGGCACUACAGAGCUCCAGAGGUCAUUUUGGCUUUAGGUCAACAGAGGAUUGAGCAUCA: 0.217 ratio
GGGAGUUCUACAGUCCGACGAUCGAUGAUAAUCACACAAAUGUGGCACUUUUAUGUGACCAGCCUUGGGAUUCUUUUCCUGAUUAAUAUUCUCCCUGGAACCACUGGUCAAGGGGAAUCAAGACGACAAGAACCCGGGGACUUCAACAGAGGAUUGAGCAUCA: 0.0971 ratio
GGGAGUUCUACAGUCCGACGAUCUAAGUCCUGUGCCAGCACUUCGCUCAUAAAGUUUUAAAUUCUGGACCAAUAGUGUUUAUCUUUAGAAUAUUGUAUCCAAUACUUUGCCUAGUAUGUAACUCACUCUUCUGGAUAAAUAAACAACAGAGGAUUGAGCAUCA: 22.4 ratio

Study 2 — technique: protein binding microarray; molecule type: double-stranded DNA, one strand shown; medium: in vitro; concentration: not given; relative to: not given; reading: higher = stronger binding; measurement: E-score
Target: Histone acetyltransferase KAT6A, both winged helices, GST fusion (KAT6A, Homo sapiens, UniProt Q92794, residues 1-181)
Notes: 8-mer, flanks averaged, mean of 2 arrays, mostly near background
Construct (chain): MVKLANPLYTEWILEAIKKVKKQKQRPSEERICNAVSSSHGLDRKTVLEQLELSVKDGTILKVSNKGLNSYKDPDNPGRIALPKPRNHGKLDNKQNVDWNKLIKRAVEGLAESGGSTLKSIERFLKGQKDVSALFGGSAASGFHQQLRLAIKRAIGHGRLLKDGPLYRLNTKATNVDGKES
CCGTATAC: 0.119
AGCCCGCA: 0.0807
AATCTTGA: -0.0969
AACCTCGG: 0.054
TCAAAAAA: -0.0704
CAGAGTCG: -0.0256
ACTTGTGA: -0.0548
GTGAGTAA: -0.0602
CCAGTTGC: -0.137
ACAGCCAC: -0.117
GCCTGTAC: 0.00571
ACAAGAAC: 0.0361
ACGTCAAA: 0.0256
GTGCGGCA: 0.162
CTCAGTGA: -0.144
CTACAGAG: -0.082
ACATTACG: 0.13
ACAATGTC: -0.0227
AATTTGGT: -0.227
GTAGTTGA: -0.098
CAGGGAGA: -0.146
CGGGGTTA: 0.236
CACAAGAG: -0.113
CGACAGTC: -0.121
GATCGAGA: -0.0607

Study 3 — technique: RNAcompete; molecule type: RNA; medium: in vitro; concentration: 20 nM; notes: 7-mer, probes averaged, single round; relative to: mean of 7-mers; reading: higher = stronger binding; measurement: 7-mer Z-score
Target: PABPC1L2, full length, GST fusion (mouse, UniProt A0ABA7IW68)
ACCGGAC: -0.119
AGCACUU: -0.0881
AUCCUCG: -0.393
GCCGGGC: -0.0591
UUUUACG: 0.0334
GAUUGCA: -0.175
ACAAAUC: 0.613
AUGGAUC: -0.0772
GGCUCCA: 0.0442
GUUCUCC: -0.373
CAUACCG: -0.345
AUAGCAC: -0.124
UUUGGGG: -0.0609
UUAGCUG: -0.184
GCCCUUU: -0.0772
AACCGGA: 0.358
CGUUCGU: -0.441
CUAAAAA: 16.9
GGCCCAC: -0.22
GGAUACA: 0.312
UUUCAGC: -0.315
CCAGAAG: -0.11

Study 4 — technique: RNA Bind-n-Seq; molecule type: RNA; medium: in vitro; concentration: 365 nM; relative to: no-protein control; reading: higher = stronger binding; measurement: RBNS enrichment (R)
Target: RNA binding protein fox-1 homolog 2, RRM domain, GST-SBP tag (RBFOX2, Homo sapiens, UniProt O43251-10, residues 100-194)
Notes: natural RNA segment, single round, ends assumed
Residues (chain): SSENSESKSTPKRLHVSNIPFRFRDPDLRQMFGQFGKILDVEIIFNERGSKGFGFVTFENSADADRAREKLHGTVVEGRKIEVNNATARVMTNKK
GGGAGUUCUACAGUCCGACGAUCCUGUUUGUAGCUGAAUGUUACAUUUUUUUAAAAAUCUCUGUUCAAGCCAGAAGAGUUGAUUAUGAGUGGCCACAGCAACCCUGGCAAGCUGGGCCAAAAAAUUUCAGUAGUGGAAUUCUCGGGUGCCAA: 0.528
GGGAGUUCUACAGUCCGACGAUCAGCCGCCCUGGCUAGAGGCCUGCAGUGGAUGAGCGCAAAGUGCCCGGCCACAGCCCCCUCCCUUUAGGCUAAAAUUCUCACCCAAGCUUUCCCACGGGAAGCUCUAGGACUGGAAUUCUCGGGUGCCAA: 0.28
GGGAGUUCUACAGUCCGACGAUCCAGCCUCCCAGCAGGACAACAAAUGGAGGUCCAUCUAUCUUUGUCACCAAGCUGAGGUGUCUGAAGCCUGGAGCUACUGGGACCCCUCCUCUCCUCUAUAGCUAUUAGAUUGGAAUUCUCGGGUGCCAA: 0.339
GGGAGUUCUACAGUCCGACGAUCCCACAGUAUCACACGUGGAACCGCAGACAGGGCCCAGAAGCUUUAGAGGUAUGAGGCUGCAGAACCGGAGAGAUUUUCCUCUGUGCAGUGCUCUCUGGCUAAAGUCACGGUGGAAUUCUCGGGUGCCAA: 0.417
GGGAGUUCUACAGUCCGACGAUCUGCAUGGAACAGGUCUGCCUAUGUGUAGUGUGGGUGUCCACUUCAGCCUAGUGUAGAGGACCUCUCGAAGACAUGCCCAGGGGUUUUUUUCCAGUGAGGUUGUAGACCCUUGGAAUUCUCGGGUGCCAA: 0.907
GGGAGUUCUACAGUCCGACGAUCUACAGUCAGUAAGUUUCACUGCGUGCACACUGACACGUUUGAGAUUGUAGGAGGACAUAUAAUUCAUAUGCUAUGUUGUACAUUUUAUGGAAAUAUAAAAGAAUCCCACAUGGAAUUCUCGGGUGCCAA: 0.632

Repeated from above (study 1):
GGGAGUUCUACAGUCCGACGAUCCGCUGGCCCAAGCUGAUGGACUCUGAUCUUGAUCUCUUCUCAGGCACGUUUGCCUUCUCUUAGUCCCUGUUUUCGGGAUGUUAUGAAUCUCAGUACUGUGGUUUGAAAGCACCAGCUUUGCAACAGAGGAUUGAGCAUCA: 0.196 ratio
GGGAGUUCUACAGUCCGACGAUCUAAGUCCUGUGCCAGCACUUCGCUCAUAAAGUUUUAAAUUCUGGACCAAUAGUGUUUAUCUUUAGAAUAUUGUAUCCAAUACUUUGCCUAGUAUGUAACUCACUCUUCUGGAUAAAUAAACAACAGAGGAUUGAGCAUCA: 22.4 ratio
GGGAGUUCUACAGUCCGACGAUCCUGAAAAACACAGAUAUCAAAGUUGUUGACUUUGGAAGUGCAACGUAUGAUGAUGAACAUCACAGUACUUUGGUGUCCACAAGGCACUACAGAGCUCCAGAGGUCAUUUUGGCUUUAGGUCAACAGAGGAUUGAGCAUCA: 0.217 ratio
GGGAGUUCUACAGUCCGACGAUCGCGGCAGAAUCAUGGAGGACAUAAUGCAGCUCCCCAAAGCGCGCGUCAACGCCAGCAUGCUAGCUCAGUAUAUCGACCGGCCCGUGUGCUUCGUAGGGAAGCUGGAAAAGAUUCAUCCCACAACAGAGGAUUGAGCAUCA: 0.119 ratio
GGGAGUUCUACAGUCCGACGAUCGAUGAUAAUCACACAAAUGUGGCACUUUUAUGUGACCAGCCUUGGGAUUCUUUUCCUGAUUAAUAUUCUCCCUGGAACCACUGGUCAAGGGGAAUCAAGACGACAAGAACCCGGGGACUUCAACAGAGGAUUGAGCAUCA: 0.0971 ratio
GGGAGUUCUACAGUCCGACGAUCUCGGAUGCUGUGCUGGGUCACUUUUCAUAUCCAGAUCCUUCCCAGUGGACAGAUGAAGAACUGGGAAUCCCUCCUGAUGACGAGGACUGACACUGUAAACUCUCUGGCACUCUGUACGCACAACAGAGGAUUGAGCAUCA: 0.323 ratio
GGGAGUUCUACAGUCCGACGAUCAACAGAUUGUCUUUAAGCAUUCCAAGCGAGAAUGCUGGGGUGAUCAUUGUUGCCCAUAUAUAGUAAUUAAUAGAUGGAAUGCUGUUCCAUGUUACAUCUUUCCUUCACUCCAGAAUUGUUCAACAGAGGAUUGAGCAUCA: 2.94 ratio
